Results pooled from the literature.
Each line is one published result; not all experiments were run side by side. ± gives the spread as reported. Values after ≈ are worked out from the molar mass of the structure shown.
Genome polyprotein NS2B-NS3 protease: Genome polyprotein, NS2B-NS3 protease (dengue virus type 2, UniProt P29990)
Chain of UniProt O15530 (whole entry, looked up): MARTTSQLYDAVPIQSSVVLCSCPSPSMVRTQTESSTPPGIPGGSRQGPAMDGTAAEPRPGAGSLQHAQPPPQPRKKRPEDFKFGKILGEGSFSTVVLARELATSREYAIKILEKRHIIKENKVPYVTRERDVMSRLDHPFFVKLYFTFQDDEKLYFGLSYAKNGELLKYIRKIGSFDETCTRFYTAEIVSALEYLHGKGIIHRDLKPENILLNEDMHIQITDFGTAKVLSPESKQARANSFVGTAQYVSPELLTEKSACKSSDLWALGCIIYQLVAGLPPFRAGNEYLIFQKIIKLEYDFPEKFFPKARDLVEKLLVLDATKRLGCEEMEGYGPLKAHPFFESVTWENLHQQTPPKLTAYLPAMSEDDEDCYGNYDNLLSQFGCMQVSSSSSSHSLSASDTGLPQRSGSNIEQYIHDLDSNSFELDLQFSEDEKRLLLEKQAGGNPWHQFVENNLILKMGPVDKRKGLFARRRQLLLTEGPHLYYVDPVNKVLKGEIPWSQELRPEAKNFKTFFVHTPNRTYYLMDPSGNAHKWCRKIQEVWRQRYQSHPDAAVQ

`C=CC(=O)Nc1cccc(Cn2ncc3cnc(Nc4cnn(CCOC)c4)nc32)c1`: “percent of control” 100% (BRSK2 human; binding, KINOMEscan; 100 nM; lower = stronger binding).
`O=C(N/N=C/c1ccc2c(ccc[n+]2Cc2ccccc2)c1)N/N=C/c1ccc2c(ccc[n+]2Cc2ccccc2)c1` has a ΔTm of 13.4 ± 0.2 °C (telomeric G4 DNA hybrid-2; FRET melting; 1 µM, DNA 0.2 µM).
`c1ccc(-c2n[nH]cc2-c2ccnc3ccccc23)nc1` — result for “log2 fold change”: -0.07 (DUN1 (Candida albicans); kinase binding, MIB/MS competition; Candida albicans lysate; 10 µM; reference: DMSO).
`NC(=O)c1cccc(NC(=O)c2cc(-c3cccs3)n(-c3ccc(Cl)cc3)n2)c1` gave an EC50 of 17 µM (Genome polyprotein NS2B-NS3 protease; reporter gene; HeLa).
For `CC(=O)[O-].O.O.O.O.[Co+2].[O-]c1ccc(Br)cc1C=NCCN1CCOCC1`, “ferric reducing power” read 10.6% (FRAP; 40 µM).
With `O=C(N/N=C/c1cc[n+](CC2CC2)c2ccccc12)c1cccc(C(=O)N/N=C/c2cc[n+](CC3CC3)c3ccccc23)n1` the ΔTm was 28.7 ± 0.7 °C (telomeric G4 DNA hybrid-2; FRET melting; 1 µM, DNA 0.2 µM).
The tissue uptake of `CCCC[C@H](NC(=O)COCCOCCNC(=O)CN1CCN(CC(=O)O)CCN(CC(=O)O)CC1)C(=O)N[C@H]1CC(=O)NCCCC[C@@H](C(N)=O)NC(=O)[C@H](Cc2c[nH]c3ccccc23)NC(=O)[C@H](CCCNC(=N)N)NC(=O)[C@@H](Cc2ccccc2)NC(=O)[C@H](Cc2c[nH]cn2)NC1=O` [technetium-99m labelled] is reported as 0.28 ± 0.1 %ID/g (C57 mouse, stomach; intravenous, 0.037 MBq, 4 h).
With `C[n+]1ccc(/C=N/NC(=O)c2cc(C(=O)N/N=C/c3cc[n+](C)cc3)ncn2)cc1` the ΔTm was 1.3 ± 0.2 °C (telomeric G4 DNA hybrid-2; FRET melting; 1 µM, DNA 0.2 µM, together with: duplex DNA competitor 10 µM).
For `C=CC(=O)N1[C@@H](c2ccc3c(c2)OCO3)c2[nH]c3ccccc3c2C[C@H]1C(=O)N1CCN(C)CC1`, “log2 fold change” read -0.2 (CCNE1 WT-3xFLAG:CDK2 complex; co-IP TMT proteomics, measured: ELP5; HEK-293T; 20 µM, 6 h; reference: DMSO).
For `CC[n+]1cccc2cc(/C=N/NC(=O)c3ccc4ccc(C(=O)N/N=C/c5ccc6c(ccc[n+]6CC)c5)nc4n3)ccc21`, the ΔTm was 16.9 ± 1.5 °C (telomeric G4 DNA hybrid-2; FRET melting; 1 µM, DNA 0.2 µM, together with: duplex DNA competitor 10 µM).
The IC50 of `CNS(=O)(=O)Nc1nccc(Cc2c(C)c3ccc(Oc4ncccc4F)cc3oc2=O)c1F` is reported as 0.664 nM (Hs766T; cell viability; 7 days).
`Nc1ncc(-c2cc(-c3cnn(CC(F)(F)F)c3)ncc2F)nc1C(=O)NC1CNCC(F)C1` (stereo not drawn) gave a remaining binding of 96% (SRC; KINOMEscan; 1 µM; reference: DMSO control).
`N=C(N)NCCC[C@@H]1NC(=O)[C@H](CCCNC(=N)N)NC(=O)[C@H](CCCNC(=N)N)NC(=O)[C@@H](CCCNC(=N)N)NC(=O)[C@H](Cc2ccc3ccccc3c2)NC(=O)[C@H](Cc2ccc3ccccc3c2)NC(=O)[C@H](Cc2ccc3ccccc3c2)NC1=O` has an MIC of > 64 µg/mL (Aspergillus fumigatus; fungal growth).
`C[n+]1cccc2cc(/C=N/NC(=O)N/N=C/c3ccc4c(ccc[n+]4C)c3)ccc21` has a ΔTm of 3.4 ± 0.2 °C (telomeric G4 DNA hybrid-2; FRET melting; 1 µM, DNA 0.2 µM, together with: duplex DNA competitor 10 µM).
`Cc1ccncc1.[Cl-].[Cl-].[Ru+2].c1cc(-c2ccc3cccnc3n2)nc(-c2ccc3cccnc3n2)c1.c1ccc2cc3nc4c5cccnc5c5ncccc5c4nc3cc2c1` has a phototoxicity index of 39 (B16-F10; resazurin; together with: light 633 nm, 100 J/cm2; reference: dark EC50 over light EC50).
The IC50 of `CC(C)c1ccc(N(C)c2ccc3c(c2)OCC[C@H]3CNc2cnccc2C(=O)O)cc1` is reported as 15.3 nM (CFPAC-1; cell viability, CellTiter-Glo; 7 days).
`N=C(N)NCCC[C@@H]1NC(=O)[C@H](CCCNC(=N)N)NC(=O)[C@@H](C(c2ccccc2)c2ccccc2)NC(=O)[C@H](Cc2c[nH]c3ccccc23)NC(=O)[C@@H](C(c2ccccc2)c2ccccc2)NC(=O)[C@@H](CCCNC(=N)N)NC(=O)[C@@H](CCCNC(=N)N)NC1=O`: “reduction of viable cells” > 95% (Aspergillus fumigatus; Af 293; 4 x MIC, 12 h).
`C=C(NC(=O)c1csc(-c2nc3c(cc2O)-c2nc(cs2)C(=O)NC(C(C)O)C(=O)NC(=C(C)OC)c2nc(cs2)C(=O)NC2c4nc(cs4)C(=O)NC(COC(=O)c4c5c6c(cccc6n4O)COC(=O)C(OC4CC(C)(O)C(N(C)C)C(C)O4)C2OC5)c2nc-3cs2)n1)C(N)=O` (stereo not drawn) has an MIC50 of 0.0156 µg/mL (≈ 0.0109 µM) (Enterococcus faecalis; microbial growth; clinical isolate).
For `Cn1ncc2cc(-c3cncc(Cl)c3N3CCC4(CCNC4=O)CC3)ccc21`, “log2 fold change” read 2.07 (LS174T; gene expression, microarray, measured: AKR1C2 mRNA; concentration not given, 24 h; reference: untreated cells).
`COc1cc(O)ccc1CCC(c1ccc(O)cc1)c1cc2c(c(C)c1O)OC(c1ccc(O)cc1)CC2` (mixture of isomers) has an amount of 231 ± 65 pg/mL blood (measured: 12-HEPE; human whole blood; 30 µM, together with: A23187).
`Cc1ncsc1-c1ccc(C(C)NC(=O)C2CC(O)CN2C(=O)C(NC(=O)CCCCCCCCCCN2CCCC(Nc3ncc(Cl)c(Nc4ccccc4S(=O)(=O)C(C)C)n3)C2)C(C)(C)C)cc1` (stereo not drawn) — result for “log2 fold change”: -1.17 (22Rv1; RNA-seq, measured: MED22 mRNA; concentration not given; reference: DMSO).
`Cc1nn(-c2cccc(N)c2)c(=O)c2cnc(Nc3ccc(N4CCNCC4)cc3)nc12` gave an IC50 of > 10000 nM (PDPK1 (Homo sapiens, UniProt O15530); kinase activity, inhibitor, SelectScreen kinase profiling).
With `CC(C)(C)c1cc(-c2ccc3cccnc3n2)nc(-c2ccc3cccnc3n2)c1.COc1ccncc1.[Cl-].[Cl-].[Ru+2].c1ccc2cc3nc4c5cccnc5c5ncccc5c4nc3cc2c1` the EC50 was 29.2 ± 1.6 µM (B16-F10; cell viability; dark).
`CCCC[C@H](NC(=O)CCCCCCCNC(=O)CN1CCN(CC(=O)O)CCN(CC(=O)O)CC1)C(=O)N[C@H]1CC(=O)NCCCC[C@@H](C(N)=O)NC(=O)[C@H](Cc2c[nH]c3ccccc23)NC(=O)[C@H](CCCNC(=N)N)NC(=O)[C@@H](Cc2ccccc2)NC(=O)[C@H](Cc2c[nH]cn2)NC1=O` [technetium-99m labelled] gave a tissue uptake of 1.16 ± 0.88 %ID/g (C57 mouse, spleen; intravenous, 0.037 MBq, 0.5 h).
`C[n+]1cc(/C=N/NC(=O)c2ccc3ccc4ccc(C(=O)N/N=C/c5cc6ccccc6[n+](C)c5)nc4c3n2)cc2ccccc21` has a ΔTm of 24.1 ± 0.5 °C (telomeric G4 DNA hybrid-2; FRET melting; 1 µM, DNA 0.2 µM).
`CN1CCCNC(=O)c2cccc(c2)C(=O)NCCCN(C)CCCNc2cccc3c2C(=O)c2cccc(c2C3=O)NCCC1` — result for “log2 fold change”: 4.15 (SAS; RNA-Seq, measured: C6orf52 mRNA; 1 µM, 6 h; reference: untreated cells).
For `C[n+]1ccc(/C=N/NC(=O)N/N=C/c2cc[n+](C)c3ccccc23)c2ccccc21`, the ΔTm was 8.6 ± 0.5 °C (telomeric G4 DNA hybrid-2; FRET melting; 1 µM, DNA 0.2 µM).
`NC(=O)c1cccc(NC(=O)c2cc(-c3ccccc3)n(-c3ccccc3)n2)c1` has an EC50 of 9.9 µM (Genome polyprotein NS2B-NS3 protease; reporter gene; HeLa).
The ΔTm of `CC[n+]1cccc2cc(/C=N/NC(=O)c3cc(C(=O)N/N=C/c4ccc5c(ccc[n+]5CC)c4)ncn3)ccc21` is reported as 3.9 ± 0.4 °C (telomeric G4 DNA hybrid-2; FRET melting; 1 µM, DNA 0.2 µM, together with: duplex DNA competitor 10 µM).
`COC1CN([C@H]2CC[C@H]([C@@]3(C)Oc4c(Cl)cc(C(=O)NCc5c(SC)cc(C)[nH]c5=O)c(C)c4O3)CC2)C1` — result for “log2 fold change”: 4.59 (RNA-seq, measured: KHDRBS3; human, whole blood; dose not given, 24 h; reference: pretreatment baseline).

For quick reference, copied from above:
`Cc1nn(-c2cccc(N)c2)c(=O)c2cnc(Nc3ccc(N4CCNCC4)cc3)nc12` gave an IC50 of > 10000 nM (PDPK1 (Homo sapiens, UniProt O15530); kinase activity, inhibitor, SelectScreen kinase profiling).
`COC1CN([C@H]2CC[C@H]([C@@]3(C)Oc4c(Cl)cc(C(=O)NCc5c(SC)cc(C)[nH]c5=O)c(C)c4O3)CC2)C1` — result for “log2 fold change”: 4.59 (RNA-seq, measured: KHDRBS3; human, whole blood; dose not given, 24 h; reference: pretreatment baseline).
